{"data": "Measured values pooled from the literature", "note": "Parts stem from different laboratories: compare values within a part only.", "chain of UniProt P27037 (whole entry, looked up)": "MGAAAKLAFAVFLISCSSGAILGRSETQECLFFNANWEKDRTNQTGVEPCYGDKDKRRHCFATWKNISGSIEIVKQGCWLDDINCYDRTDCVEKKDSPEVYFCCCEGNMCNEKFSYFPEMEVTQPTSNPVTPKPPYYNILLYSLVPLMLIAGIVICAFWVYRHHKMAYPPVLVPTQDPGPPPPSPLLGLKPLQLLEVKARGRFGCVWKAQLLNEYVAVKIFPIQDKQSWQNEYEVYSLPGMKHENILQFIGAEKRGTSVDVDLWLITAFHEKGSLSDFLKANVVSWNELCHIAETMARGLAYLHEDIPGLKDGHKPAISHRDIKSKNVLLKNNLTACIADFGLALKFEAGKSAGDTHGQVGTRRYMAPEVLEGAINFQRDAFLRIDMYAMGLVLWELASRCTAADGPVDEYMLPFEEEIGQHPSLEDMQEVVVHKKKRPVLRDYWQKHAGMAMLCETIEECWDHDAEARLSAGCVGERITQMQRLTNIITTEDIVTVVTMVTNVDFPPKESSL", "chain of UniProt Q13705 (whole entry, looked up)": "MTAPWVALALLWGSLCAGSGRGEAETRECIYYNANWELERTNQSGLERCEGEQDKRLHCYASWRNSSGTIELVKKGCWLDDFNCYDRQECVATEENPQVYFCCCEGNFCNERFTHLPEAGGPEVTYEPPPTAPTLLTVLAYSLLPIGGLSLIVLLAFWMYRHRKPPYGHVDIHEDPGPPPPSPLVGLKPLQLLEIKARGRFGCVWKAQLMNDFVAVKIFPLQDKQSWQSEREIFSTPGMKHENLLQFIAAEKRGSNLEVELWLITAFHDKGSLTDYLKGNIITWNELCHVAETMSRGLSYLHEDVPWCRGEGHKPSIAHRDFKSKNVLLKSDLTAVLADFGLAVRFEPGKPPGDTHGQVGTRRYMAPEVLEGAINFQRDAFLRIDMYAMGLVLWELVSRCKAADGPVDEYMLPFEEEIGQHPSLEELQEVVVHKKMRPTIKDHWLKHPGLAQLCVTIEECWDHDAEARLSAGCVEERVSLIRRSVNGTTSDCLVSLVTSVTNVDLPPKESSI", "chain of UniProt Q14164 (whole entry, looked up)": "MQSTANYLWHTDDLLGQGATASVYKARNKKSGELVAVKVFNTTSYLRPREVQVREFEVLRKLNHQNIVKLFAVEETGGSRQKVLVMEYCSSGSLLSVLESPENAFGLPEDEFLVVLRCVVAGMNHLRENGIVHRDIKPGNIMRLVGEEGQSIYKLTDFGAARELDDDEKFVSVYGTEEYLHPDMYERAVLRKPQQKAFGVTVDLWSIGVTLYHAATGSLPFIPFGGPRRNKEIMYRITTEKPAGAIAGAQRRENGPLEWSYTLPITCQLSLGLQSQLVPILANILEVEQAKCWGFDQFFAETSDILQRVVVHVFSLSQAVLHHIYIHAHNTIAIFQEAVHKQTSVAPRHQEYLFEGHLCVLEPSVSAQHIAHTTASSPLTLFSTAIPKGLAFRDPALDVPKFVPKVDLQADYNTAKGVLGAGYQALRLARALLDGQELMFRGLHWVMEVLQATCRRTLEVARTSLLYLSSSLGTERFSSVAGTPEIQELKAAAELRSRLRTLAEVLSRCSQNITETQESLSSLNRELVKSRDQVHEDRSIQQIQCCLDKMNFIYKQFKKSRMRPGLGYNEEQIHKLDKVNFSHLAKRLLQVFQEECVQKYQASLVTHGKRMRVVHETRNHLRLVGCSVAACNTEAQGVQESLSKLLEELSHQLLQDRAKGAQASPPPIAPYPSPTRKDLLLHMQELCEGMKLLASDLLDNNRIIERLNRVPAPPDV", "chain of UniProt Q8TDX7 (whole entry, looked up)": "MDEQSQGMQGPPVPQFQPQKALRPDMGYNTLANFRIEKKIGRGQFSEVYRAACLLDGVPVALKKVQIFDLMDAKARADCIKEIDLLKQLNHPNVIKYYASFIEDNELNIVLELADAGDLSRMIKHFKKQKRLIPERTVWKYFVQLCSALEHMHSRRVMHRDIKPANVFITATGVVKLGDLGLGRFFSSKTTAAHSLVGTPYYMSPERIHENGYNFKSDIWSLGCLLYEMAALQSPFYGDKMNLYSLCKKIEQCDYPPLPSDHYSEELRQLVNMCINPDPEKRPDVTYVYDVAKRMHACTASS", "chain of UniProt P0C1S8 (whole entry, looked up)": "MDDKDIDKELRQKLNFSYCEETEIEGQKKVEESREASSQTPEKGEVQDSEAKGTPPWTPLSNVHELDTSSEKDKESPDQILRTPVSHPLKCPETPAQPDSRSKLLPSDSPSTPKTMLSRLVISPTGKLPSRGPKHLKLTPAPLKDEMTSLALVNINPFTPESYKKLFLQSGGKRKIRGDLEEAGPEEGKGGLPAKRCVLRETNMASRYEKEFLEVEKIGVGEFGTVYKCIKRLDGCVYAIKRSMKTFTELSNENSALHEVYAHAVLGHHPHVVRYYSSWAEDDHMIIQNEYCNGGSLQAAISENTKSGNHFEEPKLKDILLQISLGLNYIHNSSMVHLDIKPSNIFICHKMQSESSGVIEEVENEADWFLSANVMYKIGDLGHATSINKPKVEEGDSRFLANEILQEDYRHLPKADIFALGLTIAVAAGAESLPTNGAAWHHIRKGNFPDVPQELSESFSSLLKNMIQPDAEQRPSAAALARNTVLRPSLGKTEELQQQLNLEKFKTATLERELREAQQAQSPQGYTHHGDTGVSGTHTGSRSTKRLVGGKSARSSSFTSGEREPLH", "chain of UniProt P49674 (whole entry, looked up)": "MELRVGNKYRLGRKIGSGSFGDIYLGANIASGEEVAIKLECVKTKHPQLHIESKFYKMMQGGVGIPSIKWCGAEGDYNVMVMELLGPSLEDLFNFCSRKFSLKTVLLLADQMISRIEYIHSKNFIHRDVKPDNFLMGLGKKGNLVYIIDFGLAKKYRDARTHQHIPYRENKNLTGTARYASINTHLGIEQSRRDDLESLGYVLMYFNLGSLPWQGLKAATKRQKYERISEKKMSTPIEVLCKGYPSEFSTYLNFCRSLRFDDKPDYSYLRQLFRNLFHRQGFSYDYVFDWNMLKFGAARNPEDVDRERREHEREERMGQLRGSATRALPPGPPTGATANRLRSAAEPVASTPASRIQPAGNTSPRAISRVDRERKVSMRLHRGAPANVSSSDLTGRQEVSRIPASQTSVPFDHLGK", "chain of UniProt Q86Y07 (whole entry, looked up)": "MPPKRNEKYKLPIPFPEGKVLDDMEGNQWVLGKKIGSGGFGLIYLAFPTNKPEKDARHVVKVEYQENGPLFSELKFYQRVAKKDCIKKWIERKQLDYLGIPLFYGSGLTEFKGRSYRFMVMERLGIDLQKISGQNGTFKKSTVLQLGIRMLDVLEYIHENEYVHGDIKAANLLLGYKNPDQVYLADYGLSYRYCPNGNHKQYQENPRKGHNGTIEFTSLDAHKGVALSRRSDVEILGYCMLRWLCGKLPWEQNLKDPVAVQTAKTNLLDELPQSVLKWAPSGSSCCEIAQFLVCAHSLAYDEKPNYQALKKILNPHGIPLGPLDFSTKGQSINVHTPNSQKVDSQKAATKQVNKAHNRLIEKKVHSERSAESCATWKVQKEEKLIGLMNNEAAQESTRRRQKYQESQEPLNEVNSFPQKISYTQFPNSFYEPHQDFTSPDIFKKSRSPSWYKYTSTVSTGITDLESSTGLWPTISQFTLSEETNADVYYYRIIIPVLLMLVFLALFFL"}
{"data": "Study 1", "target": "Interferon regulatory factor 5, full length, phosphomimetic (IRF5, Homo sapiens, UniProt Q13568-2, residues 1-514, K96S/S451D/S453D/S456D/S462D)", "technique": "protein-binding microarray", "molecule type": "double-stranded DNA, one strand shown", "matrix": "in vitro", "concentration": "250 nM", "setting": "60-bp whole probe", "with": "salmon DNA 0.4 mg/ml", "relative to": "random background probes", "direction": "higher = stronger binding", "constant ends, left off below": "GCCTAGCAC … GTCTTGATTCGCTTGACGCTGCTG"}
{"Oligonucleotide": "TCATCTGTCATGTTTGTCACTGTGCTA", "log fluorescence": "0.562 z-score"}
{"Oligonucleotide": "GCTCCAGGAAGCCTTGCCTGGTGCTAG", "log fluorescence": "-0.67 z-score"}
{"Oligonucleotide": "GACGATTCTAGTTTCGAGACGTGCTAG", "log fluorescence": "5.99 z-score"}
{"Oligonucleotide": "GACGGTGTCCTACTGCTGACGTGCTAG", "log fluorescence": "-0.68 z-score"}
{"Oligonucleotide": "ATAGGTATCGGGACTGGGTTAGTGCTA", "log fluorescence": "1.38 z-score"}
{"Oligonucleotide": "GACGGACTGGACTTTCGGGATGTGCTA", "log fluorescence": "4.76 z-score"}
{"Oligonucleotide": "CTTTACTTCACTCTCTGCTTGTGCTAG", "log fluorescence": "0.775 z-score"}
{"Oligonucleotide": "GACGGACTGGGTATCGGAACGTGCTAG", "log fluorescence": "0.675 z-score"}
{"data": "Study 2", "target": "LIM domain kinase 1 (LIMK1, Homo sapiens, UniProt P53667)", "effect on": "enzyme activity", "action": "inhibitor", "concentration": "0.5 µM", "relative to": "control", "chain of UniProt P53667 (whole entry, looked up)": "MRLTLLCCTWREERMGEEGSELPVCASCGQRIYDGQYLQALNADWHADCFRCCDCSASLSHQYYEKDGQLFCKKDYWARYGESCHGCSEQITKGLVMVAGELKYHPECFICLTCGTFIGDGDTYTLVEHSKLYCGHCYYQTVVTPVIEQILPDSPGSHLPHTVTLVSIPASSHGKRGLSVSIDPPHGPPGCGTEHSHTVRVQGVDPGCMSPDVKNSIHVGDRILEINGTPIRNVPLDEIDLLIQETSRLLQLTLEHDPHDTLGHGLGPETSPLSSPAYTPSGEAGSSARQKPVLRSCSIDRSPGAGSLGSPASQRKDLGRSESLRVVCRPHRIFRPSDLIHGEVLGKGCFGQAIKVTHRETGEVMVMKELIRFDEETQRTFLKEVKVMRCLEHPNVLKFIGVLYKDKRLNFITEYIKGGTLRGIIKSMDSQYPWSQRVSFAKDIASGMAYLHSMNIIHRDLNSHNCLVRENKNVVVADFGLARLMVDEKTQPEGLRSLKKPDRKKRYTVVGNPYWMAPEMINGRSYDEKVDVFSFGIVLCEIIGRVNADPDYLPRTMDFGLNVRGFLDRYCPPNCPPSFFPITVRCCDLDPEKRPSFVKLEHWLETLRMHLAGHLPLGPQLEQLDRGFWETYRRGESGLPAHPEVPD"}
{"Structure (SMILES)": "Nc1ccc2ncnc(NCCc3ccc(Oc4ccccc4)cc3)c2c1", "remaining activity": "101%"}
{"Structure (SMILES)": "CNC(=O)c1cc(Oc2ccc(NC(=O)Nc3ccc(Cl)c(C(F)(F)F)c3)cc2)ccn1", "remaining activity": "76.8%"}
{"Structure (SMILES)": "OCC(O)CCON=C1C(c2c(O)[nH]c3ccccc23)=Nc2ccccc21 (stereo not shown)", "remaining activity": "39.5%"}
{"Structure (SMILES)": "CC(C)[C@H](CO)Nc1nc(Nc2cc(N)cc(Cl)c2)c2ncn(C(C)C)c2n1", "remaining activity": "107%"}
{"Structure (SMILES)": "COc1ccc(OC)c2c(=S)c3ccccc3[nH]c12", "remaining activity": "108%"}
{"Structure (SMILES)": "Cc1cccc(-c2[nH]c(C(C)(C)C)nc2-c2ccc3c(c2)OCO3)n1", "remaining activity": "86.2%"}
{"Structure (SMILES)": "O=C(CCCc1ccc(-c2ccccc2F)cc1)Nc1ccc(O)cc1", "remaining activity": "106%"}
{"Structure (SMILES)": "C#Cc1cccc(Nc2ncnc3cc(OCCOC)c(OCCOC)cc23)c1", "remaining activity": "90.4%"}
{"Structure (SMILES)": "NCCNc1ncc(C(N)=O)c(Nc2cccc(C(F)(F)F)c2)n1", "remaining activity": "77.5%"}
{"Structure (SMILES)": "COc1ccc(CNC(=O)Nc2ncc([N+](=O)[O-])s2)cc1", "remaining activity": "96%"}
{"Structure (SMILES)": "O=c1c2ccccc2[nH]c(=S)n1CCN1CCC(=C(c2ccc(F)cc2)c2ccc(F)cc2)CC1", "remaining activity": "98.4%"}
{"Structure (SMILES)": "COc1cc2nccc(Oc3ccc(NC(=S)NC(=O)c4ccccc4C)cc3)c2cc1OC", "remaining activity": "82.7%"}
{"Structure (SMILES)": "Nc1ncnc2n[nH]c(Nc3ccc(F)cc3)c12", "remaining activity": "95.2%"}
{"Structure (SMILES)": "Cn1c2ccccc2c2c3c(c4c5ccccc5n(CCC#N)c4c21)CNC3=O", "remaining activity": "45.3%"}
{"data": "Study 3", "target": "Ras GTPase-activating protein-binding protein 1, full length (G3BP1, Homo sapiens, UniProt Q13283)", "technique": "RNA Bind-n-Seq", "molecule type": "RNA", "matrix": "in vitro", "concentration": "200 nM", "setting": "whole 134-nt RNA, ends assumed", "with": "150 mM LiCl", "relative to": "input library", "direction": "higher = stronger binding", "all molecules": "7-deaza-guanosine replaces G", "chain of UniProt Q13283 (whole entry, looked up)": "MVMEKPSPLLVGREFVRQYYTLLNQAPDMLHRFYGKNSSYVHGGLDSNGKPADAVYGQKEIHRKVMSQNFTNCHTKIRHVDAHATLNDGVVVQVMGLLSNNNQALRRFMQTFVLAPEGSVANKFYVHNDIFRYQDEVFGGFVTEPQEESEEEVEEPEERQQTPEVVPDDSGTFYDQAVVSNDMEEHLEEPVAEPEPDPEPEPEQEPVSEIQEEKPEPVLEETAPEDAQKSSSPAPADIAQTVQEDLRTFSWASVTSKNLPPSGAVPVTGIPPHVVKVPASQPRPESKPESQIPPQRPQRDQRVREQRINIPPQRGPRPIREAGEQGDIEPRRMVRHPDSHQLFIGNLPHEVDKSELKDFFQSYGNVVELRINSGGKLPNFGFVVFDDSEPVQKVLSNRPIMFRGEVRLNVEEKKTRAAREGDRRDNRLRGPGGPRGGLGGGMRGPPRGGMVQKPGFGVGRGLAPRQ"}
{"Oligonucleotide": "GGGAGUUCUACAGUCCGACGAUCUGGUAAGAAAUCUGCUUGUUUUAUUAAAAUGCUUAAUUGAAGAAAAUAAUAUUCUUCUGUGAUUAAAAUUAGGAAGAAAUAGAACCAUUUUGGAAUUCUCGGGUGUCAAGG", "log2 enrichment": -1.82}
{"Oligonucleotide": "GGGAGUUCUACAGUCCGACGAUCCAAGUCCUGUGCUACACAUCGUAUGUACCGAAUCGGGCCCGGGCCCGGGCCCGGGAAAGUAUUAUGUUACGCCGUUCGGAUCUGCACUUCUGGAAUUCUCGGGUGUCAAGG", "log2 enrichment": -1.49}
{"Oligonucleotide": "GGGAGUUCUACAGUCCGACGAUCCCUCAAGUCCUGUGCUACACAUCGUAUGUACCGAAUCGGGCCGGCCGGCCGGAAAGUAUUAUGUUACGCCGUUCGGAUCUGCACUUCCAGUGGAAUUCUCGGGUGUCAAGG", "log2 enrichment": 0.235}
{"Oligonucleotide": "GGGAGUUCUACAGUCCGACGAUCCUCAAGUCCUGUGCUACACAUCGUAUGUACCGAAUCGGGCCCGGCCCGGCCCGGAAAGUAUUAUGUUACGCCGUUCGGAUCUGCACUUCCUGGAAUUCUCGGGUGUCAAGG", "log2 enrichment": -0.29}
{"Oligonucleotide": "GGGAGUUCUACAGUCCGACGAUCUCCUGUGCUACACAUCGUAUGUACCGAAUCGGGGUUUUUGGGGUUUUUGGGGAAAGGGGAAAGUAUUAUGUUACGCCGUUCGGAUCUGCAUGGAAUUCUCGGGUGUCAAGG", "log2 enrichment": 0.246}
{"Oligonucleotide": "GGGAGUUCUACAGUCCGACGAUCGCAGGAAGUAAAAACAAAUGGAAAUUCUUCGGAUAGUGGCAGGGGUGGGGGUUGCUAAGGAAAGGGUGGGAUGGGAGUGGGUAAAGAGUUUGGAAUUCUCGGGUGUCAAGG", "log2 enrichment": -0.0659}
{"Oligonucleotide": "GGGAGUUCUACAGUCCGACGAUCAGUCCUGUGCUACACAUCGUAUGUACCGAAUCGGGUUUUUGGGAAAAAAAGGGUGGGAAAGUAUUAUGUUACGCCGUUCGGAUCUGCACUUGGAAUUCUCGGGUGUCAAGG", "log2 enrichment": -2.01}
{"Oligonucleotide": "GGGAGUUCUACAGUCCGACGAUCCCUGUGCUACACAUCGUAUGUACCGAAUCGGGAAAAAAAGGGAAAAAAAGGGAAAAAGGGAAAGUAUUAUGUUACGCCGUUCGGAUCUGCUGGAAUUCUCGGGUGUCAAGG", "log2 enrichment": -0.281}
{"data": "Study 4", "Compound": "CS(=O)(=O)NCC[C@H](NC(=O)c1cncc2c1cnn2-c1ccc(F)cc1)c1ccnc(S(C)(=O)=O)c1", "technique": "competition with immobilised ligand", "concentration": "1 µM"}
{"target": "WNK4 (Homo sapiens, UniProt Q96J92)", "effect on": "cell-free assay", "remaining binding [%]": 100}
{"target": "NEK7 (Homo sapiens, UniProt Q8TDX7)", "effect on": "cell-free assay", "remaining binding [%]": 90}
{"target": "EGFR (Homo sapiens, UniProt P00533, A750P/del747-749)", "effect on": "cell-free assay", "remaining binding [%]": 71}
{"target": "FLT3 (Homo sapiens, UniProt P36888)", "effect on": "cell-free assay", "remaining binding [%]": 93}
{"target": "IKBKE (Homo sapiens, UniProt Q14164)", "effect on": "cell-free assay", "remaining binding [%]": 78}
{"target": "MAPKAPK2 (Homo sapiens, UniProt P49137)", "effect on": "cell-free assay", "remaining binding [%]": 100}
{"target": "FLT3 (Homo sapiens, UniProt P36888, D835V)", "effect on": "cell-free assay", "remaining binding [%]": 100}
{"target": "WEE2 (Homo sapiens, UniProt P0C1S8)", "effect on": "cell-free assay", "remaining binding [%]": 100}
{"target": "ACVR2B (Homo sapiens, UniProt Q13705)", "effect on": "binding", "remaining binding [%]": 90}
{"target": "VRK2 (Homo sapiens, UniProt Q86Y07)", "effect on": "cell-free assay", "remaining binding [%]": 100}
{"target": "CSNK1E (Homo sapiens, UniProt P49674)", "effect on": "cell-free assay", "remaining binding [%]": 100}
{"target": "EGFR (Homo sapiens, UniProt P00533, del747-752/P753S)", "effect on": "cell-free assay", "remaining binding [%]": 71}
{"target": "ACVR2A (Homo sapiens, UniProt P27037)", "effect on": "cell-free assay", "remaining binding [%]": 81}
{"note": "A few entries again (study 3):"}
{"Oligonucleotide": "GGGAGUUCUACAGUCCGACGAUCCCUGUGCUACACAUCGUAUGUACCGAAUCGGGAAAAAAAGGGAAAAAAAGGGAAAAAGGGAAAGUAUUAUGUUACGCCGUUCGGAUCUGCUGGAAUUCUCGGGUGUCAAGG", "log2 enrichment": -0.281}
{"Oligonucleotide": "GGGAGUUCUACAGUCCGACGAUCUGGUAAGAAAUCUGCUUGUUUUAUUAAAAUGCUUAAUUGAAGAAAAUAAUAUUCUUCUGUGAUUAAAAUUAGGAAGAAAUAGAACCAUUUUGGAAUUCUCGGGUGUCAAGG", "log2 enrichment": -1.82}
